Results collected from several papers.
Parts stem from different laboratories: compare values within a part only.

Block 1 — technique: protein-binding microarray; form: double-stranded DNA, one strand shown; matrix: in vitro; tested at: not given; direction: higher = stronger binding
Target: Myc proto-oncogene protein, bHLH-zipper, MAX partner unstated (MYC, Homo sapiens, UniProt P01106, residues 368-449)
Sequence of UniProt P01106 (368-449, looked up): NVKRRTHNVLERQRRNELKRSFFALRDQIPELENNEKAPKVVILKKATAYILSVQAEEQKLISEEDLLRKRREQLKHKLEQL
Notes: k-mer, scored over probes, only values ≥0.25
| Strand | E-score |
| --- | --- |
| GCCATGGC | 0.284 |
| CGTGTTTC | 0.311 |
| AGCATGGC | 0.434 |
| CGTGGGTA | 0.304 |
| ACGCCACG | 0.425 |
| CCACCACC | 0.288 |
| ATGCGTGG | 0.421 |
| CATGGACA | 0.373 |
| AGTATGGC | 0.303 |
| ATACCATG | 0.311 |
| CGTGTCCA | 0.343 |
| ATCCCATG | 0.251 |
| GCACCTGC | 0.294 |
| GTCACGCA | 0.302 |
| ATCCACGA | 0.292 |
| AATGCGTG | 0.372 |
| ACGTGAAG | 0.259 |
| ACGCGGGC | 0.293 |
| ACACGTGC | 0.497 |

Block 2 — technique: RNA Bind-n-Seq; form: RNA; matrix: in vitro; tested at: 200 nM; notes: whole 134-nt RNA, ends assumed; with: 150 mM LiCl; reference: input library; direction: higher = stronger binding; all molecules: 7-deaza-guanosine replaces G
Target: Ras GTPase-activating protein-binding protein 1, full length (G3BP1, Homo sapiens, UniProt Q13283)
Sequence of UniProt Q13283 (whole entry, looked up): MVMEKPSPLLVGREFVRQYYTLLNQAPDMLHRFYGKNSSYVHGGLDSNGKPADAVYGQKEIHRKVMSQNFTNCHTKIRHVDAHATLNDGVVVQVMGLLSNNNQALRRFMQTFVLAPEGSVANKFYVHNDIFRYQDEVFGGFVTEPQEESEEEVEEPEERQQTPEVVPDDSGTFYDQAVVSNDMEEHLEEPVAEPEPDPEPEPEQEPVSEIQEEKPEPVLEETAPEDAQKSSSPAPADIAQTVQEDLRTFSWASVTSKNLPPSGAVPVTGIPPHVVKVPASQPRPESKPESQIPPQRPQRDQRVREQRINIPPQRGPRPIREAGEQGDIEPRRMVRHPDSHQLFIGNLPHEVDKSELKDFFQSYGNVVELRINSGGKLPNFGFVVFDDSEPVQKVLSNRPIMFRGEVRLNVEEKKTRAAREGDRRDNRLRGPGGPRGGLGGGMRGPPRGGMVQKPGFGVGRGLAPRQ
| Strand | log2 enrichment |
| --- | --- |
| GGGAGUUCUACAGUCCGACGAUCUGGCCCUGGUGGCAUGCGGGGAGGAAGAGGUGGCCUCAUGGAUCGUGGUGGUCCCGGUGGCAUGUUCAGAGGUGGCCGUGGUGGAGACAGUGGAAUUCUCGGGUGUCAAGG | 0.273 |
| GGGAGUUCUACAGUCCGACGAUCUUUGCUGUUGUUAACCAUCAAGGGACCUUGGAGAGUGGCCACUACACCAGCUUUAUCCGGCAGCACAAAGACCAGUGGUUCAAGUGUGACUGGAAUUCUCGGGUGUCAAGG | -1.34 |
| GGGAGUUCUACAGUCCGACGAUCACCAUGCAGGUGGGCAUCUUUGGGAAGUAAAGCAAGGGGGGGAUAGGGAGGGGGGUAACACUUUGGGAACAGGUGGUCCCAGGUCGUUUCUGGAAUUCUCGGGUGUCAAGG | 0.479 |
| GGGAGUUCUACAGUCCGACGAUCAAGUCCUGUGCUACACAUCGUAUGUACCGAAUCGGGGAGGGGAAAGGGGAAAGGGGAAAGUAUUAUGUUACGCCGUUCGGAUCUGCACUUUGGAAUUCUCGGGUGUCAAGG | 0.875 |
| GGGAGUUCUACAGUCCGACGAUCAGUCCUGUGCUACACAUCGUAUGUACCGAAUCGGUUUUUGGUUUUUGGGGUUUUUGGGAAAGUAUUAUGUUACGCCGUUCGGAUCUGCACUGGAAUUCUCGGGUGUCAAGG | -0.177 |
| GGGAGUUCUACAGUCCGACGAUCCUGUGCUACACAUCGUAUGUACCGAAUCGGUUUUUUUGGGUUUUUUUGGGUUUUUUUGGGGAAAGUAUUAUGUUACGCCGUUCGGAUCUGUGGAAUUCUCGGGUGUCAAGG | 1.23 |
| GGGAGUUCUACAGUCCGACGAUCGUCCUGUGCUACACAUCGUAUGUACCGAAUCGGUUUUUUUGGUUUUUUUGGUUUUUGGAAAGUAUUAUGUUACGCCGUUCGGAUCUGCACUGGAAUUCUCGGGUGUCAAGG | -1.01 |
| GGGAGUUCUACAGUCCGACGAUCCUCAAGUCCUGUGCUACACAUCGUAUGUACCGAAUCGGGCCGGCCGGCCGGGGAAAGUAUUAUGUUACGCCGUUCGGAUCUGCACUUCCAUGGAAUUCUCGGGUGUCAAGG | 0.649 |
| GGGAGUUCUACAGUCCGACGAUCUGGCCCUGGUGGCAUGCGGGGAGGAAGAGGUGGCCUCAUGGAUCGUCGUGGUCCCGGUGGAAUGUUCAGAGGUGGCCGUGGUGGAGACAGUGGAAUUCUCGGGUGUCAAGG | 0.866 |
| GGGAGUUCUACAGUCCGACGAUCUCAAGUCCUGUGCUACACAUCGUAUGUACCGAAUCGGAGGAAAAAAAGGUUUGGAAAGUAUUAUGUUACGCCGUUCGGAUCUGCACUUCCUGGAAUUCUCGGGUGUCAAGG | -1.12 |
| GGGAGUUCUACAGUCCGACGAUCCCUGUGCUACACAUCGUAUGUACCGAAUCGGGGUUUUUUUGGUUUUUUUGGGUUUUUUUGGAAAGUAUUAUGUUACGCCGUUCGGAUCUGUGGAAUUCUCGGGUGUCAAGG | 1.29 |

Block 3 — technique: RNA Bind-n-Seq; form: RNA; matrix: in vitro; tested at: 365 nM; reference: no-protein control; direction: higher = stronger binding
Target: RNA binding protein fox-1 homolog 2, RRM domain, GST-SBP tag (RBFOX2, Homo sapiens, UniProt O43251-10, residues 100-194)
Notes: natural RNA segment, single round, ends assumed
Target sequence (chain): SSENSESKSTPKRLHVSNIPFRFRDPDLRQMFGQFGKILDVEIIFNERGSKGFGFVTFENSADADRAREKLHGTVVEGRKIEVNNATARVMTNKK
| Strand | RBNS enrichment (R) |
| --- | --- |
| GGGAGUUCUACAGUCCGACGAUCGCUUUUCAUUCUGCACAGUCCCAGGUCCCAGCUCCCCUCUUAUGGUUUCUGUCAUAAUGUGCUUUAUCUGAUUGACUCCAAACAUCCCGAAAUGUCACCUGCAGAUUUCUUGGAAUUCUCGGGUGCCAA | 0.372 |
| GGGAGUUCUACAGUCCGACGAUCUGGGAGGAUGGCUUGUGUCCAGAAGUUCGAGACCAGCCUGGACAACAUAGUGAGAUCCUAUCUCUAUAAAAAAUCAAAAAUUAGCCAGGCAUGGUGGUGCAUACCUAUAGUGGAAUUCUCGGGUGCCAA | 1.48 |
| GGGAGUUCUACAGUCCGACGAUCAAUACUGCACACAUAAGAUACAUACUUGUGUGCAGAAAGUAUCUUCCUCCAGGCUUGUAAUACCCUUCACAUGGAAGAUUAAUGAGGGAAAUCUUUAUAUUCUGUAUAAAUGGAAUUCUCGGGUGCCAA | 0.477 |
| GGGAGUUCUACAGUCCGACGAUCUUCUAGAUGUAGGCUAACAAUGAAAAGUAUUUGCCAAACUGAAUAAAACUGUCAUGGUUACCUUGAAGGACAAUGGUUAUUGUUAAAUAUAGUGAUCAUUCAUGUCUAAAUGGAAUUCUCGGGUGCCAA | 0.305 |
| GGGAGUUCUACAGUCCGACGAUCGCUAUAGCUCUCAAGUGCUCUAGAGGCAGUUGGAAAGGAAGGAAUGCAUGCUUAUGUGAGCAGCUGGACUCCCGCUCAGUACAGGCCUGGAACCCCAGGCCAAAUGUAUGUGGAAUUCUCGGGUGCCAA | 0.639 |
| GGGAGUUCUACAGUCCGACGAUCGCAUCUGGCCCCAGAAGCCUCCUCACCUGGACUGGCACAACUUCGGUUGGGGAAACAGAAGCUGAGGGAGCUUAGAUGGGGUGGGGGAUCCAAGCCCCUCCCAGCCCACCUGGAAUUCUCGGGUGCCAA | 0.28 |
| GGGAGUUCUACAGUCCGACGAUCAGGAGUGGGGUGCUGUCUUCCACUGACACCCAGGUCCAGAAUCCUUGGUCUUGAGCCCCUGUCCUUUCUCCAUCCCCCAUGGAAAUGUAGUUCUUUUCUGGCCCUUUCCCUGGAAUUCUCGGGUGCCAA | 0.298 |
| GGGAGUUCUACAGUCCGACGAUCCAUGGUAAAGCUCCUCUCGCUUUCCUCCUGAGGCUACACCCAUGCGUCUCUAGGAACUGGUCACAAAAGUCAUGGUGCCUGCAUCCCUGCCAAGCCCCCCUGACCCUCUCUGGAAUUCUCGGGUGCCAA | 1.56 |
| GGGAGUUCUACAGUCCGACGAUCAUGGUAAUUUGAUAUAUGGUAUUUAUAUUGGCAUUUUUCAAUCCAGUGUCAGUAGCUGUCACGCGCAUUUGUGGUGCUUUGAUGUUUGCGAGUCUAACCUCCUCUCAUAAUGGAAUUCUCGGGUGCCAA | 0.883 |
| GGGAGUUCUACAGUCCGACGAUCAGAGAUGGGAUUUGGGGGUGAAUUUGUCAAUAUCUGGAUUUUAAUCCAGACAUCUCUGCUAACAAGCCUUUGGUAAGUCACUUCAGAUACUUUUCCUCCUUUUUACAAAGUGGAAUUCUCGGGUGCCAA | 0.481 |
| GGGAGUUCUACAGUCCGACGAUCCUUUAGACACGAAAUGCGUGCUAGGACUGGCAGCAGUUCCUGAGCCUGGCUGCCAGGCAACAGGAAGAAAGGCGUAUGGGAAAGUAGGAUGGAGACUGGAACCAUCCUACUGGAAUUCUCGGGUGCCAA | 0.73 |
| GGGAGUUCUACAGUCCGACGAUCGCUUGACUUAAUGCACUUACAGGCUCAGGAAGGAAUUUGCUAUCACUGUUGUGGCUUUUGACUUGGGGUGGUCCAGUGCCAGGCUGGAAGUAAGCACAGCCCAUCUCCUGUGGAAUUCUCGGGUGCCAA | 1.62 |

Block 4 — technique: EMSA with sequencing; form: double-stranded DNA, one strand shown; matrix: in vitro; tested at: 10 and 20 nM; reference: negative control set to 0; direction: higher = stronger binding
Target: Hepatocyte nuclear factor 3-alpha (Foxa1, Mus musculus, UniProt P35582, residues 1-468, full length assumed)
Sequence of UniProt P35582 (whole entry, looked up): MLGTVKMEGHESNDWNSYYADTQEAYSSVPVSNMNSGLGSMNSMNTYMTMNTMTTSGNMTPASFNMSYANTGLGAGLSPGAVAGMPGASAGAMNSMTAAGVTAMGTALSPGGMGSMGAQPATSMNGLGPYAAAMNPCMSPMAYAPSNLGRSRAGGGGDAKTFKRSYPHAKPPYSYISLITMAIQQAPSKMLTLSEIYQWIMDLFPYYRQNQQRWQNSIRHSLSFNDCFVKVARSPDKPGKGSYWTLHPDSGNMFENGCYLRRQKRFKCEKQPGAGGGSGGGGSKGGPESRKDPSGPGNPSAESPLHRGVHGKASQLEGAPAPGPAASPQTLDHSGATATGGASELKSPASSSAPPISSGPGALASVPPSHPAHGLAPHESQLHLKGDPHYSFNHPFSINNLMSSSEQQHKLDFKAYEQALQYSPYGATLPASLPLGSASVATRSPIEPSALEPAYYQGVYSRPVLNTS
Notes: whole designed probe, mean of two concentrations, ends assumed
| Strand | normalised bound fraction [ratio] |
| --- | --- |
| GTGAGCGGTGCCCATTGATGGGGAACTGAAGTGGGAACCTGAGGGTCATCTGAGAATTTTCCCTACCCACCTGAATAGATTTCTAAAATCACCTTTCAGTTGCTTTTGCTGTCTTTCTAAGTAATCTAAGATATCATCTCCAAATAATAATTAATTGAACTGCTTTTCAATTGTATTCATTAAAATAATTATCTTTTTCTGGCTTATATGAAGTATTTCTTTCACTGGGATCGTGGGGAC | -0.0282 |
| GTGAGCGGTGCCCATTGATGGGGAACCTAAATAGATACTTCTGGCTTAATCATGTAGAATCCTTTTGACTATACATAACAGAAAACCAAGCTAACCATTAGCATTAACTAAAAGGATGCTTGTTTACTTAATATTACTTCCAAAGTGGTCCCTGTGATGGTTTGGCCTTGAAATTGAATCATCAAGGACCGACTCTCTTTTCAAAATCTTTGGTTGGTATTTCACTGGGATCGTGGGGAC | 0.423 |
| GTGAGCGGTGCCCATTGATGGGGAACCTACATAAAATATCACTTATCAAAGTCTGTTTATGACCTCTTTTAAATCCAGAAATCATACTGCTGTCAATTCATTTTTAGCAGCAATCCTAAGTCATCTTGAGTCTATGTATCTTGAGTAATCCTTGGCAGGGTGCAGAGCAGTAAATCATATTTTATTACTCAAGATGGCAGAAGCTAGAGCTATCTGAAATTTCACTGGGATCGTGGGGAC | -0.00367 |
| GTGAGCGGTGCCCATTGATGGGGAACCATATAAATGAATATAAATATGAATATGAATACAATCAATAGATAGACATCTGCCATCTTCTTACCACTGCCACCCATCCCAGTGACTTTTTGTTGTTTACTCAGACTAAAATGTCATCATAAGATAAAAATCCATCTATATTTCTATTTGGGATCAATACTACATATTTACTGTTACTTGTCATCCTTTGATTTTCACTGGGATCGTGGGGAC | 0.417 |
| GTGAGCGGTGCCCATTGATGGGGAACTCGGCCAGCCTGGCTTCTGCGCCCCGCCAGGAGGTCGCGGAGCGGAGCGCGGCCAGGAAGTGAGCTGAGAGTGACAGCTCCCCCCACGCTGTTTGTTTATTCTCATGACTCATTCTCCACACACTGGCTCTTCTTTCTTTCGGGAGGAGGGGAGAAAGGAGCGGGAGGGCGGGCGGGCAGGGGAGAGGCAGGCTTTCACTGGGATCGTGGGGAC | 0.285 |
| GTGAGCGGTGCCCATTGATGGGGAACCCAACGTATCAGTATATTCAGCTCCCCTGTTCTTTGTTCTTCATTTTAAACGTTAACTTCCTTGTTCTTTATATCTCCTTGGCCCTAGTCTCAGTAATCTACCCACCAGTTCTAATCAGTAGTTCACATCTGTTCCCCTGGTCACCTGATCCATCCTGAGTCACCCTTGGTCACCTGCTCTGTCCTGAGTCACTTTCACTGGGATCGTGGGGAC | -0.0725 |
| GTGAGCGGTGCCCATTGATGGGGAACCTGTGCAGAAAAGAGATAGCACAGTAAGACTGAGACTCTTGATACCCACAGAAAGGCTGACCTTTGCCTACAGTCTGCAAACGTCACTGGTAAGTAATCTGCTCCCTACATTGATACAAAACTCTCTAAGTGAAAACAGTGGCTCACTGTGCCTAACGGGTTTATGCTAAAGACCTGTTTTCCTTTCAGGAGTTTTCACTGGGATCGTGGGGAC | -0.0371 |
| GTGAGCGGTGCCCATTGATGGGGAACTCCGGTTGGGAGCTTCTTCACTAAATGAGAGAATGTTTGAAATATCAAATAGAGTACAATAGTACATAGCATATCCTAAATGATAGGGTACAAAGTAATCTAGTTAAAAGTAAATGTGTAGCTCTAGGATCAAGCCAAACAAAGCTATTTAAAACCTAAACTTAAAATGAAGGGGATGAATTAGTCTAGATCTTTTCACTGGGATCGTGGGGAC | 0.103 |

A few entries again (block 1):
| Strand | E-score |
| --- | --- |
| AGTATGGC | 0.303 |
| ACGTGAAG | 0.259 |
| ATGCGTGG | 0.421 |
| GTCACGCA | 0.302 |
| AGCATGGC | 0.434 |
| CGTGTCCA | 0.343 |
| ACGCGGGC | 0.293 |
